Measurements of several laboratories.
Numbered parts are unrelated; each lists some results of a single study. Numbers after ± are the reported error.
Sequence of UniProt P08922 (whole entry, looked up): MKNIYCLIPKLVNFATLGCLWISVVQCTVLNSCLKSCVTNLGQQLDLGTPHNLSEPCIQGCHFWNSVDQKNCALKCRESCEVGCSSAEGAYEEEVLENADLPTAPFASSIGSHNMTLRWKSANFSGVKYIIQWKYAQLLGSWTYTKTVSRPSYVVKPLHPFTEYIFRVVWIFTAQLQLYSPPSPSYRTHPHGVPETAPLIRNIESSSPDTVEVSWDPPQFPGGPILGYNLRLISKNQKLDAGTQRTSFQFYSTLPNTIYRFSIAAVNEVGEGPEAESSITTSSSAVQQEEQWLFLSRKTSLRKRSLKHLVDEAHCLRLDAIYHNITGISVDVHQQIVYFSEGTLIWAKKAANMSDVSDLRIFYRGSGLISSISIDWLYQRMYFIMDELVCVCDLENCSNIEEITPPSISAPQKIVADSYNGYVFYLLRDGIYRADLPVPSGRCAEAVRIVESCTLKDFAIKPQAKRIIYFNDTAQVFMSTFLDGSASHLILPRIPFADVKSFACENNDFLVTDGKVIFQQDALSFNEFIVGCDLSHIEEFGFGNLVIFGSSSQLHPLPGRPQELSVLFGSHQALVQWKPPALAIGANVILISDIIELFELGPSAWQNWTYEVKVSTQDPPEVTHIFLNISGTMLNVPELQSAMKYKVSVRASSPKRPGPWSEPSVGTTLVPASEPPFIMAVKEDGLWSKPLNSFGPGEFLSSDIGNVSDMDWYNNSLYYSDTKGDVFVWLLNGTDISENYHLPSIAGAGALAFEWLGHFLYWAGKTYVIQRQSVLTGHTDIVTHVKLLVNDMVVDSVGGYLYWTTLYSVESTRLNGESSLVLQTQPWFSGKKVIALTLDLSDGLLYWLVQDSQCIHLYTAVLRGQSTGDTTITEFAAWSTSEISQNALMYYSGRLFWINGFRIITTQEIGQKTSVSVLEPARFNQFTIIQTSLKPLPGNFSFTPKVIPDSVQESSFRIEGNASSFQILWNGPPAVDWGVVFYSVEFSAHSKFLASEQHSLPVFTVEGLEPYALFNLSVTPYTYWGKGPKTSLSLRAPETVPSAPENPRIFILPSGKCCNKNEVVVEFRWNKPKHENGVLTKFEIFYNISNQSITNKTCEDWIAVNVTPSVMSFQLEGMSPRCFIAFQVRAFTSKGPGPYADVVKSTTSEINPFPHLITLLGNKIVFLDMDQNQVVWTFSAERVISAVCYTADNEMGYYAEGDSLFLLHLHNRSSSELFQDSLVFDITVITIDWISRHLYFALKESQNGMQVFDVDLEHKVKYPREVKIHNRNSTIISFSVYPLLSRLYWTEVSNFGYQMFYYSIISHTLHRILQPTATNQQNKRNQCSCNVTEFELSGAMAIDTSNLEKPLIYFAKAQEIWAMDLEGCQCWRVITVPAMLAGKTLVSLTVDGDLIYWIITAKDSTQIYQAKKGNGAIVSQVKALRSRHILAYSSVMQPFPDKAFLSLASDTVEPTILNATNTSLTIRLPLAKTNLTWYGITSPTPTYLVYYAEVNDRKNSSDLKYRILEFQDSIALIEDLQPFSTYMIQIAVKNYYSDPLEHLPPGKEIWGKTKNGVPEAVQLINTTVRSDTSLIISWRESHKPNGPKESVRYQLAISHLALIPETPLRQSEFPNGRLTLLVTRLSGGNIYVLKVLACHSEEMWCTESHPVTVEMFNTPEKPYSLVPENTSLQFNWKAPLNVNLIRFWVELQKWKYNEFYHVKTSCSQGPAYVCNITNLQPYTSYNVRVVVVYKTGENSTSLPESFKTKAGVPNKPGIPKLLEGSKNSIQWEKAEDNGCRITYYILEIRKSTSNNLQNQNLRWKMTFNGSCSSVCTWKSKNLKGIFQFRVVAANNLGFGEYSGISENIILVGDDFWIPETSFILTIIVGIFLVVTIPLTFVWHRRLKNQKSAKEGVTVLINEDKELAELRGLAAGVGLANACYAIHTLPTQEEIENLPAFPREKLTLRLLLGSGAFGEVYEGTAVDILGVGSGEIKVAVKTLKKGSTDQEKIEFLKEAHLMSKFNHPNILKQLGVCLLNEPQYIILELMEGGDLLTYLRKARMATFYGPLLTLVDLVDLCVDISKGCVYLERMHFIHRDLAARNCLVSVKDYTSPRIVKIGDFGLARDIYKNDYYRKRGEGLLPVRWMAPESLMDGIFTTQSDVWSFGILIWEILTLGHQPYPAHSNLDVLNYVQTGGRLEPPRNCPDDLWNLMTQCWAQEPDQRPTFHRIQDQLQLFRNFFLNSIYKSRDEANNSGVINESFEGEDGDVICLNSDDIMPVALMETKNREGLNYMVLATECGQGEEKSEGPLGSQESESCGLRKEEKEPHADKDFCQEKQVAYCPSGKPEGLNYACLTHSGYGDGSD
Sequence of UniProt O43318 (whole entry, looked up): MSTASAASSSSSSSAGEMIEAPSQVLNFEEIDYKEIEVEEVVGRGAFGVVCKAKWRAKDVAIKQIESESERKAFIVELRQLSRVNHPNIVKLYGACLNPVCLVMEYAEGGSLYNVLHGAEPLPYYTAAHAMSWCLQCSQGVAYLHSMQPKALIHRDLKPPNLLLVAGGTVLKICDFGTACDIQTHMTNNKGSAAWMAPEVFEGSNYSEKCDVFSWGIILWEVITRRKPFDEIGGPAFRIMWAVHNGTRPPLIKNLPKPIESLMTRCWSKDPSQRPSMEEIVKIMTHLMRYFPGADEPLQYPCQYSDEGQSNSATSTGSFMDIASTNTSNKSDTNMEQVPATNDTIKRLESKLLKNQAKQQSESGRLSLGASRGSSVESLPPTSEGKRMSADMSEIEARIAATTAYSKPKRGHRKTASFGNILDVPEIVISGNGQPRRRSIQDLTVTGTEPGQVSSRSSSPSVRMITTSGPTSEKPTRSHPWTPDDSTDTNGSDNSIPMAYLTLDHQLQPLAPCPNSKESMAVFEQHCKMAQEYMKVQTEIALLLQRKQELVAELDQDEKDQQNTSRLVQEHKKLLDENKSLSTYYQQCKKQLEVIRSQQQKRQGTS
Sequence of UniProt Q13131 (whole entry, looked up): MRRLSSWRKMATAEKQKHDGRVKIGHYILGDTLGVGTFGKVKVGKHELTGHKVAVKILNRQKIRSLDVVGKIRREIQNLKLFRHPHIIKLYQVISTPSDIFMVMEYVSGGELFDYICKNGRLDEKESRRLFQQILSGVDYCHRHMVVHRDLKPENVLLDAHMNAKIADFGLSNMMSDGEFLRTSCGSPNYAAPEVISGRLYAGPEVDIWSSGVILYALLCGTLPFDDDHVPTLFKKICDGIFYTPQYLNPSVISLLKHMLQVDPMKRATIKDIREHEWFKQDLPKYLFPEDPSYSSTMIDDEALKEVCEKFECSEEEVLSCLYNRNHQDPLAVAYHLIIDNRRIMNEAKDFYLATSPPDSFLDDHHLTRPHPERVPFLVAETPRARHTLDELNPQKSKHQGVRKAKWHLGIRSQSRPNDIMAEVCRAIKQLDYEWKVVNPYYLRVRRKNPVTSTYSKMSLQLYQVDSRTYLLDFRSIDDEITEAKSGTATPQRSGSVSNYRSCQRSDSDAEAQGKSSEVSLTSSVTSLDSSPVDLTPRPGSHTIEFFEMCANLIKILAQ
Sequence of UniProt Q9P0L2 (whole entry, looked up): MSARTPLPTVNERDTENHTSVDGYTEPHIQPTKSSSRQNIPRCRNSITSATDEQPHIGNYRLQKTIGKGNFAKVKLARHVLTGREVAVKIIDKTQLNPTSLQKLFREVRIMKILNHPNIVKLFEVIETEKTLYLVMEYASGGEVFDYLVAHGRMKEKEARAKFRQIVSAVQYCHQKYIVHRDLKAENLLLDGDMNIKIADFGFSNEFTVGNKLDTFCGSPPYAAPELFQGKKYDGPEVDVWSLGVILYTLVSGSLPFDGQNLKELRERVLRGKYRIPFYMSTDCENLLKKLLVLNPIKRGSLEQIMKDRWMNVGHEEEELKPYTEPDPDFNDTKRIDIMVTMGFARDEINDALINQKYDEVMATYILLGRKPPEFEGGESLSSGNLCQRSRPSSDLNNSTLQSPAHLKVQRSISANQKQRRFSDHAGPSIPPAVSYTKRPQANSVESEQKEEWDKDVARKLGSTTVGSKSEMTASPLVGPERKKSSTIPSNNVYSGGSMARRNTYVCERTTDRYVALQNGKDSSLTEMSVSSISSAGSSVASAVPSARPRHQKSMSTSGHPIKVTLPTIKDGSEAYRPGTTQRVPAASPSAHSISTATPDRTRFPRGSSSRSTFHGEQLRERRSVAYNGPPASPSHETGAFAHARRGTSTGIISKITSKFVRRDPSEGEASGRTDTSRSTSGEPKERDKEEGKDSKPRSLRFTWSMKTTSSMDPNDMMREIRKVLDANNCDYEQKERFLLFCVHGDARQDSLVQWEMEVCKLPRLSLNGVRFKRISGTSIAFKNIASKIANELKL
Sequence of UniProt P11802 (whole entry, looked up): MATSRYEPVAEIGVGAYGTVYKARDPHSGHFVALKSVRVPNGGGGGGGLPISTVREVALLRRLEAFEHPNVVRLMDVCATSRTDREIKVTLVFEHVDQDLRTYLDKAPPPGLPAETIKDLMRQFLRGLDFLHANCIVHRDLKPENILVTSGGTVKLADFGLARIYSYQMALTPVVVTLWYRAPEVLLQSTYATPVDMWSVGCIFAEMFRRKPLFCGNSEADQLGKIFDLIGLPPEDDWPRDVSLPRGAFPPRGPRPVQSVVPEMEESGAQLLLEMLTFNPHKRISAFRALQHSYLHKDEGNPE

Study 1 — concentration: 1 µM
Compound: CCS(=O)(=O)c1cc2cc(C[C@@](O)(CC(C)(C)c3ccc(F)cc3C(N)=O)C(F)(F)F)[nH]c2cn1
MARK1 (Homo sapiens, UniProt Q9P0L2); cell-free assay, competition with immobilised ligand — remaining binding: 100%.
It gave 100% for remaining binding (BLK (Homo sapiens, UniProt P51451); cell-free assay, competition with immobilised ligand).
It gave 100% for remaining binding (Tyrosine-protein kinase ABL1, phosphorylated (ABL1, Homo sapiens, UniProt P00519, F317I); binding).
The remaining binding was 92% (MAP3K7 (Homo sapiens, UniProt O43318); cell-free assay, competition with immobilised ligand).
The remaining binding was 100% (Cyclin-dependent kinase 4, with cyclin D3 (CDK4, Homo sapiens, UniProt P11802); cell-free assay, competition with immobilised ligand).
It gave 74% for remaining binding (Tyrosine-protein kinase ABL1, phosphorylated (ABL1, Homo sapiens, UniProt P00519, T315I); cell-free assay, competition with immobilised ligand).
For TLK2 (Homo sapiens, UniProt Q86UE8); cell-free assay, competition with immobilised ligand: remaining binding read 97%.
For MAP2K4 (Homo sapiens, UniProt P45985); cell-free assay, competition with immobilised ligand: remaining binding read 100%.
The remaining binding was 80% (FGFR3 (Homo sapiens, UniProt P22607); cell-free assay, competition with immobilised ligand).
It gave 90% for remaining binding (ROS1 (Homo sapiens, UniProt P08922); cell-free assay, competition with immobilised ligand).
The remaining binding was 100% (PRKAA1 (Homo sapiens, UniProt Q13131); cell-free assay, competition with immobilised ligand).
It gave 90% for remaining binding (FLT4 (Homo sapiens, UniProt P35916); cell-free assay, competition with immobilised ligand).
It gave 81% for remaining binding (SIK3 (Homo sapiens, UniProt Q9Y2K2); cell-free assay, competition with immobilised ligand).
The remaining binding was 100% (ACVR1 (Homo sapiens, UniProt Q04771); cell-free assay, competition with immobilised ligand).

Study 2 — observed: kinase activity
SMILES: COc1cc(C(=O)N2CCC(N3CCN(C)CC3)CC2)ccc1Nc1ncc2c(n1)N(C)c1ccccc1C(=O)N2C
The remaining activity was 92 ± 11% (MELK; 10 µM).
For GSK3B; 1 µM: remaining activity read 90 ± 1%.
It gave 79 ± 2% for remaining activity (CDK2-cyclin A; 10 µM).

Study 3 — mode: antagonist
Target: Beta-1 adrenergic receptor (ADRB1, Homo sapiens, UniProt P08588)
Sequence of UniProt P08588 (whole entry, looked up): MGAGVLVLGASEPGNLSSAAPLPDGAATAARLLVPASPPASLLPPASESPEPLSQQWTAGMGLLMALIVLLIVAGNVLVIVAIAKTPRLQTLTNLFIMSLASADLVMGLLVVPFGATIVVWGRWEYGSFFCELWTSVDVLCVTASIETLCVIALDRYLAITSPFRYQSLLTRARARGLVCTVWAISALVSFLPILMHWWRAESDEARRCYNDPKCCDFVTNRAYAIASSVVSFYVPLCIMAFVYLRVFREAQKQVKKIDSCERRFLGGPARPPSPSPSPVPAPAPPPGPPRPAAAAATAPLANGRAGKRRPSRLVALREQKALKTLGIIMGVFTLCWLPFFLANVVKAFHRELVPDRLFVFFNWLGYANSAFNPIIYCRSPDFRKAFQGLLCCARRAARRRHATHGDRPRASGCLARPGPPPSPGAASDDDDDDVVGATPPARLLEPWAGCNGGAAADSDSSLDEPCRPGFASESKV
With `CN(C)c1ccc(-c2nnc([C@H]3CCN(c4nccc(C(F)(F)F)n4)C3)o2)cc1` the IC50 was ≥ 100 µM.
`COc1cc(CN2CCOCC2)ccc1OCC(O)CN1CCSCC1` (stereo not shown) has an IC50 of ≥ 100 µM.
`COCCNCc1ccc(-c2cc3nccc(Oc4ccc(NC(=S)NC(=O)Cc5ccc(F)cc5)cc4F)c3s2)nc1` gave an IC50 of ≥ 100 µM.
For `O=c1cc(-c2ccccn2)oc2c(NC3CCOCC3)nccc12`, the IC50 was ≥ 100 µM.

Study 4 — host: mouse; medium: microsomes or S9; concentration: 2 µM; time: 0.5 h
`Cn1cc(C(NC(=O)c2c[nH]c3c(F)cccc3c2=O)[C@H]2C[C@@H](O)C2)cn1` (stereo partly shown) has a remaining compound of > 100%.
With `COc1cc(Br)ccc1C1NCCc2c1[nH]c1ccccc21` (stereo not shown) the remaining compound was 0.426%.
`N#Cc1cc(F)ccc1S(=O)(=O)N1CCCO1` gave a remaining compound of 95.7%.
The remaining compound of `COCCN1C(=O)C(CC(=O)O)=C2CCCCC21` (stereo not shown) is reported as 83%.
With `CCOC(=O)c1cccc(NC(=O)N2Cc3c(sc4c3CCCC4)-n3cccc3C2C)c1` (stereo not shown) the remaining compound was 2.56%.

Study 5 — cell line: HaCaT; concentration: 100 µM; time: 18 h
`Cc1cc(=O)n(-c2ccccc2)n1C` has a viability of 111%.
For `C/C=C(/C(=C/C)c1ccc(O)cc1)c1ccc(O)cc1`, the viability was 99.9%.
With `C/C=C1\NC(=O)[C@H]2CSSCC/C=C/[C@H](CC(=O)N[C@H](C(C)C)C(=O)N2)OC(=O)[C@H](C(C)C)NC1=O` the viability was 18.7%.
The viability of `COc1cc(CNC(=O)CCCC/C=C/C(C)C)ccc1O` is reported as 49.7%.
`CC1(C)S[C@@H]2[C@H](NC(=O)[C@H](N)c3ccccc3)C(=O)N2[C@H]1C(=O)OCOC(=O)[C@@H]1N2C(=O)C[C@H]2S(=O)(=O)C1(C)C` gave a viability of 90.9%.
